Measurements from different studies.
Protocols differ between the studies behind these lines. Converted amounts (≈) assume the structure as drawn.
Organism: Pseudomonas aeruginosa

CC[C@H](C)[C@H](NC(=O)[C@H](CCCCN)NC(=O)[C@H](CCCCN)NC(=O)[C@H](CC(C)C)NC(=O)[C@H](CCCCN)NC(=O)[C@H](CCC(=O)O)NC(=O)[C@H](CCCCN)NC(=O)[C@@H](NC(=O)[C@H](CCCCN)NC(=O)[C@H](CC(N)=O)NC(=O)[C@H](CCCNC(=N)N)NC(=O)[C@H](Cc1ccccc1)NC(=O)[C@H](CCCCN)NC(=O)[C@H](CCCNC(=N)N)NC(=O)[C@H](CC(C)C)NC(=O)[C@H](CCCNC(=N)N)NC(=O)[C@H](CCCCN)NC(=O)[C@H](CCCNC(=N)N)NC(=O)[C@H](CC(C)C)NC(=O)CN)[C@@H](C)CC)C(=O)NCC(=O)N[C@@H](CCC(N)=O)C(=O)N[C@@H](CCCCN)C(=O)N[C@H](C(=O)N[C@@H](CCC(N)=O)C(=O)NCC(=O)N[C@@H](Cc1ccccc1)C(=O)N[C@H](C(=O)N1CCC[C@H]1C(=O)N[C@@H](CCCCN)C(=O)N[C@@H](CC(C)C)C(=O)N[C@@H](C)C(=O)N1CCC[C@H]1C(=O)N[C@@H](CCCNC(=N)N)C(=O)N[C@H](C(=O)N[C@@H](CC(=O)O)C(=O)N[C@@H](Cc1ccc(O)cc1)C(=O)O)[C@@H](C)O)C(C)C)[C@@H](C)CC
lethal concentration (inhibition zone method; 11082616, LB 0.8% agar with 154 mM NaCl; overnight, 37 °C): 2.91 µM

CN1CC(=O)N=C1N.C[C@H](CCC(=O)O)[C@H]1CC[C@H]2[C@@H]3CC[C@@H]4C[C@H](O)CC[C@]4(C)[C@H]3C[C@H](O)[C@]12C
antibacterial activity (TISTR357; 1 mg per disc, 18 to 24 h, 37 °C): inactive

NCCCC[C@H](NC(=O)[C@@H]1CSCC(=O)N[C@@H](CCCCN)C(=O)N[C@@H](Cc2ccccc2)C(=O)N[C@@H](CCCCN)C(=O)NCCCC[C@@H]2NC(=O)[C@H](CCCCN)NC(=O)[C@H](Cc3ccccc3)NC(=O)[C@H](CCCCN)NC(=O)CSC[C@H](NC(=O)[C@H](Cc3ccccc3)NC(=O)[C@H](Cc3ccccc3)NC(=O)[C@H](CCCCN)NC2=O)C(=O)N[C@@H](Cc2ccccc2)C(=O)N[C@@H](Cc2ccccc2)C(=O)N[C@@H](Cc2ccccc2)C(=O)N1)C(N)=O
minimal biofilm inhibitory concentration (PAO1; 24 to 25 h): 32 µg/mL

CC[C@H](C)[C@H](NC(=O)[C@H](CCCCN)NC(=O)[C@H](CCCCN)NC(=O)[C@H](CC(C)C)NC(=O)[C@H](CCCCN)NC(=O)[C@H](CCC(=O)O)NC(=O)[C@H](CCCCN)NC(=O)[C@@H](NC(=O)[C@H](CCCCN)NC(=O)[C@H](CC(N)=O)NC(=O)[C@H](CCCNC(=N)N)NC(=O)[C@H](Cc1ccccc1)NC(=O)[C@H](CCCCN)NC(=O)[C@H](CCCNC(=N)N)NC(=O)[C@H](CC(C)C)NC(=O)[C@H](CCCNC(=N)N)NC(=O)[C@H](CCCCN)NC(=O)[C@H](CCCNC(=N)N)NC(=O)[C@H](CC(C)C)NC(=O)[C@@H](N)CCCNC(=N)N)[C@@H](C)CC)C(=O)NCC(=O)N[C@@H](CCC(N)=O)C(=O)N[C@@H](CCCCN)C(=O)N[C@H](C(=O)N[C@@H](CCC(N)=O)C(=O)NCC(=O)N[C@@H](Cc1ccccc1)C(=O)N[C@H](C(=O)N1CCC[C@H]1C(=O)N[C@@H](CCCCN)C(=O)N[C@@H](CC(C)C)C(=O)N[C@@H](CCC(N)=O)C(=O)N1CCC[C@H]1C(=O)N[C@@H](CO)C(=O)N[C@@H](CCCCN)C(=O)N[C@@H](CCC(N)=O)C(=O)N[C@@H](CO)C(=O)O)C(C)C)[C@@H](C)CC
lethal concentration (inhibition zone method; 11092618, LB 0.8% agar with 154 mM NaCl; overnight, 37 °C): 4.34 µM

CC(C)C[C@@H]1NC(=O)[C@H](CCCCN)NC(=O)CSC[C@@H](C(=O)N[C@@H](CCCCN)C(N)=O)NC(=O)[C@H](CC(C)C)NC(=O)[C@H](CC(C)C)NC(=O)[C@H](CC(C)C)NC(=O)[C@@H]2CSCC(=O)N[C@@H](CCCCN)C(=O)N[C@@H](CC(C)C)C(=O)N[C@@H](CCCCN)C(=O)N[C@@H](CCCCNC(=O)[C@H](CCCCN)NC1=O)C(=O)N[C@@H](CCCCN)C(=O)N[C@@H](CC(C)C)C(=O)N[C@@H](CC(C)C)C(=O)N2
minimal biofilm inhibitory concentration (PAO1; 24 to 25 h): 32 µg/mL

CCCCCC(=O)NCC(=O)N[C@@H](CC(C)C)C(=O)N[C@@H](CC(C)C)C(=O)N[C@@H](CCCCN)C(=O)N[C@@H](CCCNC(=N)N)C(=O)N[C@H](C(=O)N[C@@H](CCCCN)C(=O)N[C@H](C(=O)N[C@@H](CC(C)C)C(=O)N[C@@H](CC(C)C)C(=O)NCCCC[C@H](NC(=O)[C@H](CCCCNC(=O)[C@H](CC(C)C)NC(=O)[C@H](CC(C)C)NC(=O)[C@@H](NC(=O)[C@H](CCCCN)NC(=O)[C@@H](NC(=O)[C@H](CCCNC(=N)N)NC(=O)[C@H](CCCCN)NC(=O)[C@H](CC(C)C)NC(=O)[C@H](CC(C)C)NC(=O)CNC(=O)CCCCC)[C@@H](C)CC)[C@@H](C)O)NC(=O)[C@H](CC(C)C)NC(=O)[C@H](CC(C)C)NC(=O)[C@@H](NC(=O)[C@H](CCCCN)NC(=O)[C@@H](NC(=O)[C@H](CCCNC(=N)N)NC(=O)[C@H](CCCCN)NC(=O)[C@H](CC(C)C)NC(=O)[C@H](CC(C)C)NC(=O)CNC(=O)CCCCC)[C@@H](C)CC)[C@@H](C)O)C(N)=O)[C@@H](C)O)[C@@H](C)CC
FIC index (checkerboard; ATCC 27853; added: polymyxin B): 0.25

CC[C@H](C)[C@H](NC(=O)[C@H](CCCCN)NC(=O)[C@H](CCCCN)NC(=O)[C@H](CC(C)C)NC(=O)[C@H](CCCCN)NC(=O)[C@H](CCC(=O)O)NC(=O)[C@H](CCCCN)NC(=O)[C@@H](NC(=O)[C@H](CCCCN)NC(=O)[C@H](CC(N)=O)NC(=O)[C@H](CCCNC(=N)N)NC(=O)[C@H](Cc1ccccc1)NC(=O)[C@H](CCCCN)NC(=O)[C@H](CCCNC(=N)N)NC(=O)[C@H](CC(C)C)NC(=O)[C@H](CCCNC(=N)N)NC(=O)[C@H](CCCCN)NC(=O)[C@H](CCCNC(=N)N)NC(=O)[C@@H](N)CC(C)C)[C@@H](C)CC)C(=O)NCC(=O)N[C@@H](CCC(N)=O)C(=O)N[C@@H](CCCCN)C(=O)N[C@H](C(=O)N[C@@H](CCC(N)=O)C(=O)NCC(=O)N[C@@H](Cc1ccccc1)C(=O)N[C@H](C(=O)N1CCC[C@H]1C(=O)N[C@@H](CCCCN)C(=O)N[C@@H](CC(C)C)C(=O)O)C(C)C)[C@@H](C)CC
lethal concentration (inhibition zone method; 11092618, LB 0.8% agar with 154 mM NaCl; overnight, 37 °C): 2.66 µM

CC(C)C[C@H](NC(=O)[C@H](CCCCNC(=O)[C@H](CCCCN)NC(=O)[C@H](CC(C)C)NC(=O)[C@H](CCCCNC(=O)[C@H](CCCCN)NC(=O)[C@H](CC(C)C)NC(=O)[C@H](CCCCNC(=O)[C@H](CCCCN)NC(=O)[C@@H](N)CC(C)C)NC(=O)[C@H](CCCCN)NC(=O)[C@@H](N)CC(C)C)NC(=O)[C@H](CCCCN)NC(=O)[C@H](CC(C)C)NC(=O)[C@H](CCCCNC(=O)[C@H](CCCCN)NC(=O)[C@@H](N)CC(C)C)NC(=O)[C@H](CCCCN)NC(=O)[C@@H](N)CC(C)C)NC(=O)[C@H](CCCCN)NC(=O)[C@H](CC(C)C)NC(=O)[C@H](CCCCNC(=O)[C@H](CCCCN)NC(=O)[C@H](CC(C)C)NC(=O)[C@H](CCCCNC(=O)[C@H](CCCCN)NC(=O)[C@@H](N)CC(C)C)NC(=O)[C@H](CCCCN)NC(=O)[C@@H](N)CC(C)C)NC(=O)[C@H](CCCCN)NC(=O)[C@H](CC(C)C)NC(=O)[C@H](CCCCNC(=O)[C@H](CCCCN)NC(=O)[C@@H](N)CC(C)C)NC(=O)[C@H](CCCCN)NC(=O)[C@@H](N)CC(C)C)C(=O)N[C@@H](CCCCN)C(N)=O
MBIC (biofilm formation; PAO1; 24 h): 6 µM

CCCCCCCCCC(=O)NCC(=O)N[C@@H](CC(C)C)C(=O)N[C@@H](CC(C)C)C(=O)N[C@@H](CCCCN)C(=O)N[C@@H](CCCNC(=N)N)C(=O)N[C@H](C(=O)N[C@@H](CCCCN)C(=O)N[C@H](C(=O)N[C@@H](CC(C)C)C(=O)N[C@@H](CC(C)C)C(N)=O)[C@@H](C)O)[C@@H](C)CC
FIC index (checkerboard; ATCC 27853; added: polymyxin B): 0.375

C[C@@](O)(C(F)F)[C@H](NC(=O)c1ccc(C#CC#CC2CC2)cc1)C(=O)NO
MIC50 (agar dilution; susceptible clinical isolates): 0.25 mg/L (≈ 0.664 µM)

CC[C@H](C)[C@H](NC(=O)[C@H](CCCCN)NC(=O)[C@H](CCCCN)NC(=O)[C@H](CC(C)C)NC(=O)[C@H](CCCCN)NC(=O)[C@H](CCC(=O)O)NC(=O)[C@H](CCCCN)NC(=O)[C@@H](NC(=O)[C@H](CCCCN)NC(=O)[C@H](CC(N)=O)NC(=O)[C@H](CCCNC(=N)N)NC(=O)[C@H](Cc1ccccc1)NC(=O)[C@H](CCCCN)NC(=O)[C@H](CCCNC(=N)N)NC(=O)[C@H](CC(C)C)NC(=O)[C@H](CCCNC(=N)N)NC(=O)[C@H](CCCCN)NC(=O)[C@H](CCCNC(=N)N)NC(=O)[C@H](CC(C)C)NC(=O)[C@@H](N)CC(C)C)[C@@H](C)CC)C(=O)NCC(=O)N[C@@H](CCC(N)=O)C(=O)N[C@@H](CCCCN)C(=O)N[C@H](C(=O)N[C@@H](CCC(N)=O)C(=O)NCC(=O)N[C@@H](Cc1ccccc1)C(=O)N[C@H](C(=O)N1CCC[C@H]1C(=O)N[C@@H](CCCCN)C(=O)N[C@@H](CC(C)C)C(=O)N[C@H](C(=O)N1CCC[C@H]1C(=O)N[C@@H](CCCNC(=N)N)C(=O)N[C@H](C(=O)N[C@@H](CCC(=O)O)C(=O)N[C@@H](CO)C(=O)O)[C@@H](C)O)C(C)C)C(C)C)[C@@H](C)CC
lethal concentration (inhibition zone; O1; LB agar, overnight): 1.95 µM

CC(C)[C@H](N)C(=O)N[C@H]1CSSC[C@@H](C(=O)N[C@H](C(N)=O)C(C)C)NC(=O)[C@H](Cc2c[nH]c3ccccc23)NC(=O)[C@H](CCCCN)NC(=O)[C@H](CCCCN)NC(=O)[C@H](Cc2c[nH]c3ccccc23)NC(=O)[C@H](CCCCN)NC(=O)[C@H](CCCNC(=N)N)NC(=O)[C@H](CCCCN)NC(=O)[C@H](Cc2c[nH]c3ccccc23)NC(=O)[C@H](CCCCN)NC(=O)[C@H](CCCCN)NC(=O)[C@H](Cc2c[nH]c3ccccc23)NC(=O)[C@H](CCCNC(=N)N)NC(=O)[C@H](CCCCN)NC1=O
time to complete killing (CICC 21625; 5 x MIC): ≤ 1 min
